Assay results pooled from the literature.
Numbered parts are unrelated; each lists some results of a single study. Substitutions count along the parent as printed.

Block 1
Target: CCND1, cyclin fold, Cln2 fusion (human)
Method: yeast growth competition, sequencing
Medium: yeast
Setting: weak parent motif
Baseline: not given
Direction: higher = stronger binding
Parent: E2F1 docking peptide (human); PPVKRRLDLETDH
For `PPVKRRLDLETDR [H13R]`, “normalised enrichment score” read 0.251.
`PPVKRRLDLETVH [D12V]` — result for “normalised enrichment score”: 0.515.
Under “normalised enrichment score”, `PPVKNRLDLETDH [R5N]` is recorded as 0.321.
For `PPVRRRLDLETDH [K4R]`, “normalised enrichment score” read 0.714.
`PPVKRRLDLETDD [H13D]`: “normalised enrichment score” 1.14.
Under “normalised enrichment score”, `PPVLRRLDLETDH [K4L]` is recorded as 0.382.
For `PPVKRPLDLETDH [R6P]`, “normalised enrichment score” read 0.0555.
For `PPVKRRLKLETDH [D8K]`, “normalised enrichment score” read 0.698.
For `PPVKRRLLLETDH [D8L]`, “normalised enrichment score” read 0.627.
`PPVKRRLWLETDH [D8W]` — result for “normalised enrichment score”: 0.119.
For `PFVKRRLDLETDH [P2F]`, “normalised enrichment score” read 0.766.
`WPVKRRLDLETDH [P1W]`: “normalised enrichment score” 0.651.
Under “normalised enrichment score”, `PPVKRRLDLEFDH [T11F]` is recorded as 0.878.
`KPVKRRLDLETDH [P1K]` — result for “normalised enrichment score”: 0.655.
Under “normalised enrichment score”, `PPYKRRLDLETDH [V3Y]` is recorded as 0.321.
`PPVKRNLDLETDH [R6N]` — result for “normalised enrichment score”: 0.0996.
For `PPFKRRLDLETDH [V3F]`, “normalised enrichment score” read 0.246.
Under “normalised enrichment score”, `PPVKRRLDLETRH [D12R]` is recorded as 0.177.
For `PPVKRWLDLETDH [R6W]`, “normalised enrichment score” read 0.448.
`PPVKRRPDLETDH [L7P]` — result for “normalised enrichment score”: -0.218.

Block 2
Target: Ras GTPase-activating protein-binding protein 1, C-terminal RGG region (G3BP1, Homo sapiens, UniProt Q13283)
Chain of UniProt Q13283 (whole entry, looked up): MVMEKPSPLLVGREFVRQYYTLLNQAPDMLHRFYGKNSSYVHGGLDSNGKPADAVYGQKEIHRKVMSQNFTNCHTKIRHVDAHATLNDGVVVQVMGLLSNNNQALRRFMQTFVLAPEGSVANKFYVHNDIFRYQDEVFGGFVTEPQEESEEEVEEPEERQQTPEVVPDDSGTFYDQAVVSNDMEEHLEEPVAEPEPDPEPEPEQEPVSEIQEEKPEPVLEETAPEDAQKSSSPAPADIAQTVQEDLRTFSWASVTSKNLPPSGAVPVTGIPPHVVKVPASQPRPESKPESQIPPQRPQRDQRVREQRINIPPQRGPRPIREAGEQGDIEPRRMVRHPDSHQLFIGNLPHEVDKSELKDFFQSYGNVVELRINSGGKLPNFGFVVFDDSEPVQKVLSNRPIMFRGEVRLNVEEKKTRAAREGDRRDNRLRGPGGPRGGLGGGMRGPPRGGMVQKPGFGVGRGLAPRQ
Method: RNA Bind-n-Seq
Molecule type: RNA
Medium: in vitro
Concentration: 1 µM
Setting: whole 134-nt RNA, ends assumed
With: 150 mM KCl
Baseline: input library
Direction: higher = stronger binding
Constant ends, left off below: GGGAGUUCUACAGUCCGACGAUC … UGGAAUUCUCGGGUGUCAAGG
With `AAGUCCUGUGCUACACAUCGUAUGUACCGAAUCGGAAAGGUUUUUGGUUUUUUUGGAAAGUAUUAUGUUACGCCGUUCGGAUCUGCACUU` the log2 enrichment was -2.07.
For `CCUCAAGUCCUGUGCUACACAUCGUAUGUACCGAAUCGGCCGGCCGGCCGGGGAAAGUAUUAUGUUACGCCGUUCGGAUCUGCACUUCCA`, the log2 enrichment was -1.14.
With `AAGUCCUGUGCUACACAUCGUAUGUACCGAAUCGGGUUUUUGGUUUUUGGUUUUUGGAAAGUAUUAUGUUACGCCGUUCGGAUCUGCACU` the log2 enrichment was -1.53.
The log2 enrichment of `UCAAGUCCUGUGCUACACAUCGUAUGUACCGAAUCGGGCCGGGCCGGGCCGGGGAAAGUAUUAUGUUACGCCGUUCGGAUCUGCACUUCC` is reported as 0.524.
The log2 enrichment of `AUCAUUUCAUUUUUAUAAUUAUACAUUAGACAUUGGCACUUGUGUAAAACUGUCCCUGCAGAUUGAGCAGGAAGUAAAAACAAAUGGAAA` is reported as -1.16.
`UAACUUUAGAGGAGGAUCUGAUGGAUAUGGCAGUGGACGUGGAUUUGAGGAUGGCUAUAAUGGGUAUGGAGGAGGACCUGGAGGUGGCAA` gave a log2 enrichment of -1.15.
With `GUCCUGUGCUACACAUCGUAUGUACCGAAUCGGGAAAAAGGGAAAAAGGGGAAAAAGGGAAAGUAUUAUGUUACGCCGUUCGGAUCUGCA` the log2 enrichment was -0.293.
For `UGGCCCUGGUGGCAUGCGGGGAGGAAGAGGUGGCCUCAUGGAUCGUGGUGGUCCCGGUGGAAAGUUCAGAGGUGGCCGUGGUGGAGACAG`, the log2 enrichment was 1.59.
The log2 enrichment of `UUGUGGUAUUUUAUUUACUUAUUUUUUUAAAUCUUCCAUUACAGCCAUGCCUUUCUUGGACAUCCAGAAAAGGUUCGGCCUUAACAUAGA` is reported as -1.33.
`AAGUCCUGUGCUACACAUCGUAUGUACCGAAUCGGGAAAGGGAAAGGGAAAAAGGGAAAGUAUUAUGUUACGCCGUUCGGAUCUGCACUU` has a log2 enrichment of 0.545.
The log2 enrichment of `UGGCCCUGGUGGCAUGCGGGGAGGAAGAGGUGGCCUCAUGGAUCGUGGUGGUUCCGGUGGAAUGUUCAGAGGUGGCCGUGGUGGAGACAG` is reported as 1.44.
With `UAACUUUAGAGGAGGAUCUGAUGGAUAUGGCAGUGGACGUGGAUUUGGGGAUGGCUAGAAUGGGUAUGGAGGAGGACCUGGAGGUGGCAA` the log2 enrichment was -0.138.
`UGCCAUAAGCGGCACCGGCACUGCCCGGUUGUCGUGUCCGAGGCCACCAUCGUGGGCGUCCGCAAGACCGGGCAGAUCUGGCCCAACGAU` has a log2 enrichment of -2.28.
`AAGUCCUGUGCUACACAUCGUAUGUACCGAAUCGGGGAGGGGAAAAAGGGGUGGGGAAAGUAUUAUGUUACGCCGUUCGGAUCUGCACUU` has a log2 enrichment of 2.39.

Block 3
Target: RING finger protein unkempt homolog, zinc fingers 1-6, GST-SBP tag (UNK, Homo sapiens, UniProt Q9C0B0, residues 30-357)
Chain of UniProt Q9C0B0 (30-357, looked up): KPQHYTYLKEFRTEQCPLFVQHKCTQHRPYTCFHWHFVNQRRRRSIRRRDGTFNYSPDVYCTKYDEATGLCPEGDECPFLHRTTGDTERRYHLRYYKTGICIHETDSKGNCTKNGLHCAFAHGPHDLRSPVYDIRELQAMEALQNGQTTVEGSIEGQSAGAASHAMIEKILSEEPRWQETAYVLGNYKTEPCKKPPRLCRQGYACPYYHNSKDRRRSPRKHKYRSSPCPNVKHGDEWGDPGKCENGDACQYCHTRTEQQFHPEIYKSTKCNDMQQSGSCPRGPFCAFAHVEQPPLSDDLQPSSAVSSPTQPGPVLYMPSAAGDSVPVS
Method: RNA Bind-n-Seq
Molecule type: RNA
Medium: in vitro
Concentration: not given
Setting: RNA with constant flanks, human-mouse chimeric sites, ends assumed
Baseline: input RNA pool
Direction: higher = stronger binding
Constant ends, left off below: GGGAGUUCUACAGUCCGACGAUC … CAACAGAGGAUUGAGCAUCA
For `UUACCCGAGAACGAGGAUGAGCUGGAGAGCACCAACAGGCGCUACACCAAGAGAGACUGCAGCACUUUUCUCAGAACUAGUGAGACGGGCAUCGUGGACCAGGUCAUGGUCACUCUCAAC`, the bound/input enrichment was 0.151 ratio.
For `UAACCACAUCAAGAUGGUUGGGAAGCUGAAGCAGAACUUACUAUUGGCGUGUCUGGUGAUUAGUUCUGUGACCGUGUUUUACCUGGGCCAGCAUGCCAUGGAGUGCCAUCACCGGAUAGA`, the bound/input enrichment was 0.169 ratio.
For `AUUGUUGAAGCGAAUCCACUUUUAGAAGCCUUUGGAAAUGCGAAGACUGUUCGCAACAAUAAUAGCAGUCGAUUUGGAAAAUUUGUAGAAAUUCAUUUCAAUGAAAAGAGUUCGGUUGUU`, the bound/input enrichment was 0.521 ratio.
`CUUAAUGAUAUUUUGAGUGAAUAAAUGAAGCUAAAAUGUCUGCUUUUGGUACAACACGCAUUAAUAAAAGGUUAAGUUUUGUUUUCCCUCCACUGAAUAUUUAACAUCUCAGAAAAAAAC` gave a bound/input enrichment of 0.144 ratio.
With `AUAAAGGCUAUGUUGAGUGGUCCAGGUCAGUUUGCUGAGAAUGAAACCAACGAGGUCAAUUUUAGAGAGAUACCUUCACAUGUGCUAUCAAAAGUGUGCAUGUAUUUUACCUACAAGGUC` the bound/input enrichment was 0.109 ratio.
`UGUAGUUUCGCGGUUCAGGCUUUGUGUGUAGUUCACUCUAUGUAUUAAAUUAUUAUUCUGCUUAGCUUAUAAUAAGGAUAAUUGCAUUUAAAGAGGUUACUGAAUGUUACUCUGAAACUU` has a bound/input enrichment of 0.244 ratio.
For `GGACAUCUUGUCAGGAUUUAUGUUCCUAAAAACGUAGUGAACACUCUGAUACACUUCAUCUGCUUGUACAUCUGUAUGAUAGAGAAAUGUAAAUAUGUUAAUCCAAGCAAUGUGUCACUU`, the bound/input enrichment was 0.206 ratio.
The bound/input enrichment of `CUGGCCUGGCCCUCCCCAGGGGCCUCCUUCUCUGCAUUCACUGCUUCUGCAUCAGAUACUUUCAGCUGCAACUCCCUACUGGGUGGGGCACCCAUUUCAGGCAGAAGGUUUUGGUACCCU` is reported as 0.269 ratio.

Block 4
Target: ABI1, truncated, D143A, DHFR fusion (Arabidopsis thaliana)
Method: DHFR PCA, deep sequencing
Medium: yeast
Setting: methotrexate growth selection, single substitutions
With: (+)-ABA 0.39 µM
Baseline: wild-type fitted maximum
Direction: higher = stronger binding
Parent: PYL1, truncated, DHFR fusion (Arabidopsis thaliana); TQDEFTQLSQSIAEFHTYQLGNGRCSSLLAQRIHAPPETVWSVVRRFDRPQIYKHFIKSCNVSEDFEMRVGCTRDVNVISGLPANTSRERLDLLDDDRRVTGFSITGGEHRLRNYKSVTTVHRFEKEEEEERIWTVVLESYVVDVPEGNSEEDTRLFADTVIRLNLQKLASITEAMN
Under “relative binding score”, `D144E` is recorded as 3.29%.
For `R32K`, “relative binding score” read 47.3%.
Under “relative binding score”, `T173W` is recorded as -21.2%.
`L20W`: “relative binding score” 9.69%.
Under “relative binding score”, `T106E` is recorded as 12.1%.
`E131D`: “relative binding score” 62.4%.
`P83D`: “relative binding score” 13.3%.
Under “relative binding score”, `I162V` is recorded as 59.5%.
For `D3M`, “relative binding score” read 40.2%.
Under “relative binding score”, `G102P` is recorded as -8.48%.
For `F103S`, “relative binding score” read -1.87%.

Block 5
Target: Interferon regulatory factor 5, full length, phosphomimetic (IRF5, Homo sapiens, UniProt Q13568-2, residues 1-514, S451D/S453D/S456D/S462D)
Method: protein-binding microarray
Molecule type: double-stranded DNA, one strand shown
Medium: in vitro
Concentration: 940 nM top
Setting: 60-bp whole probe
With: salmon DNA 0.4 mg/ml
Baseline: random background probes
Direction: higher = stronger binding
Constant ends, left off below: GCCTAGCAC … GTCTTGATTCGCTTGACGCTGCTG
`TTAGGCCTCCTTATCCTTTAGTGCTAG` — result for “fitted relative affinity”: 0.125 z-score.
For `TTCAATTTTTGCATCGTAAGGTGCTAG`, “fitted relative affinity” read 0.346 z-score.
`TTAGGAGTGGGTTTCGGTTAGTGCTAG` — result for “fitted relative affinity”: 7.36 z-score.
Under “fitted relative affinity”, `GACGGTATCCTTTTCCAGACGTGCTAG` is recorded as 0.415 z-score.
`TCACTTTTGGCTTTCCTACTGTGCTAG`: “fitted relative affinity” 1.54 z-score.
For `TTAGGACTGGACTTTCGGCTAGTGCTA`, “fitted relative affinity” read 0.856 z-score.
`TTAGGTTTCGGCACTGGGTTAGTGCTA` — result for “fitted relative affinity”: 8.57 z-score.
`TCAGATTGGTTGAACATACTGTGCTAG`: “fitted relative affinity” -0.0454 z-score.
Under “fitted relative affinity”, `TTCGGTCTCGGACTGGGTTAGTGCTAG` is recorded as 1.25 z-score.
For `TTAGGTATCGGGACTGTGTTAGTGCTA`, “fitted relative affinity” read 4.1 z-score.
Under “fitted relative affinity”, `TTAGGTCTCCTATTGCTTTAGTGCTAG` is recorded as -0.087 z-score.
Under “fitted relative affinity”, `TTAGGTTTCGGGGATCGGTTAGTGCTA` is recorded as 8.57 z-score.
`GACGGTCTCAGTCTCGAGACGTGCTAG`: “fitted relative affinity” 1.94 z-score.
`TTAGGGCTCCTTTTCCTTTAGTGCTAG` — result for “fitted relative affinity”: 0.176 z-score.
For `TCAATTATGAGTCTTGAACTGTGCTAG`, “fitted relative affinity” read -0.536 z-score.
`GACGAACTGCGGTATCGAGACGTGCTA`: “fitted relative affinity” 0.756 z-score.

Block 6
Target: DDIT3, bZIP domain (human)
Method: DHFR protein complementation
Medium: yeast
Setting: single substitutions, most at no-binding floor
Baseline: wild-type JUN-FOS pair
Direction: higher = stronger binding
Parent: JUN, bZIP domain (human); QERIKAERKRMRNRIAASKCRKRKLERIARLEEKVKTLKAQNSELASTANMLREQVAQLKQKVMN; partner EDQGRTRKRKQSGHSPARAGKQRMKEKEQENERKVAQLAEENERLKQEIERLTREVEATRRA
`R53F` has a binding fitness of -1.08 natural log.
For `E32V`, the binding fitness was -0.21 natural log.
For `Q41R`, the binding fitness was -0.0647 natural log.
With `T48D` the binding fitness was -0.574 natural log.
`L52D` has a binding fitness of -1.1 natural log.
`M51I` gave a binding fitness of -0.0533 natural log.
The binding fitness of `L45R` is reported as -1.27 natural log.
`V35T` has a binding fitness of -0.523 natural log.
`K34T` has a binding fitness of 0.0969 natural log.
The binding fitness of `E54G` is reported as -0.0847 natural log.
The binding fitness of `T37K` is reported as 0.0665 natural log.
For `V56D`, the binding fitness was -1.24 natural log.
The binding fitness of `A29W` is reported as -0.149 natural log.

A few entries again (block 5):
For `TTCAATTTTTGCATCGTAAGGTGCTAG`, “fitted relative affinity” read 0.346 z-score.
`TTAGGAGTGGGTTTCGGTTAGTGCTAG` — result for “fitted relative affinity”: 7.36 z-score.
Under “fitted relative affinity”, `GACGGTATCCTTTTCCAGACGTGCTAG` is recorded as 0.415 z-score.
`TCACTTTTGGCTTTCCTACTGTGCTAG`: “fitted relative affinity” 1.54 z-score.
For `TTAGGACTGGACTTTCGGCTAGTGCTA`, “fitted relative affinity” read 0.856 z-score.
`TTAGGTTTCGGCACTGGGTTAGTGCTA` — result for “fitted relative affinity”: 8.57 z-score.
`TCAGATTGGTTGAACATACTGTGCTAG`: “fitted relative affinity” -0.0454 z-score.
Under “fitted relative affinity”, `TTCGGTCTCGGACTGGGTTAGTGCTAG` is recorded as 1.25 z-score.
For `TTAGGTATCGGGACTGTGTTAGTGCTA`, “fitted relative affinity” read 4.1 z-score.
Under “fitted relative affinity”, `TTAGGTCTCCTATTGCTTTAGTGCTAG` is recorded as -0.087 z-score.
Under “fitted relative affinity”, `TTAGGTTTCGGGGATCGGTTAGTGCTA` is recorded as 8.57 z-score.
`GACGGTCTCAGTCTCGAGACGTGCTAG`: “fitted relative affinity” 1.94 z-score.
`TTAGGGCTCCTTTTCCTTTAGTGCTAG` — result for “fitted relative affinity”: 0.176 z-score.
